Published values collected from several papers.
Each line is one published result; not all experiments were run side by side. ± gives the spread as reported.

C=CC(=O)ON=C1C=CC(=C(C#N)c2ccccc2)C=C1
MIC (Pichia norvegensis; broth dilution; ATCC 96139; 48 h, 37 °C): 32 µg/mL

CC(C)(O/N=C(\C(=O)N[C@@H]1C(=O)N2C(C(=O)[O-])=C(C[n+]3ccccc3)CS[C@H]12)c1csc(N)n1)C(=O)O
MIC (Helicobacter pylori; broth microdilution; SS1; 48 h, microaerobic): > 128 µg/mL

CC(C)C[C@@H]1NC(=O)[C@@H](Cc2ccccc2)NC(=O)[C@H](CCN)NC(=O)[C@@H](NC(=O)[C@H](CCN)NC(=O)[C@@H](N)[C@@H](C)O)CCNC(=O)[C@H]([C@@H](C)O)NC(=O)[C@H](CCN)NC(=O)[C@H](CCN)NC1=O
MIC (Escherichia coli; checkerboard; W3110; concentration not given, together with: rifampicin): 0.09 µg/mL

O=c1c(O)c(-c2ccc(O)cc2)oc2cc(O[C@@H]3O[C@H](CO)[C@@H](O)[C@H](O)[C@H]3O)cc(O)c12
MIC (Streptococcus sobrinus; ATCC 33478): 100 µg/mL

CNC(C)C1CCC(N)C(OC2C(N)CC(N)C(OC3OCC(C)(O)C(NC)C3O)C2O)O1 (centres unmarked)
MIC (Pseudomonas aeruginosa; broth microdilution; clinical isolate RKI-No 483/15-1): 8 µg/mL

C/C(=N\C(=S)/N=C(\C)c1c(O)c2ccccc2oc1=O)c1c(O)c2ccccc2oc1=O
MIC (Penicillium verrucosum; broth microdilution; 48 h, 35 °C): 1.95 ± 0.07 µg/mL

N=C(N)c1ccc(OCCC(CCOc2ccc(C(=N)N)cc2)c2ccccc2)cc1 (centres unmarked)
MIC (Escherichia coli; BW25113; compound alone, vancomycin checkerboard): > 200 µg/mL

CC(C)(C)OCC1NC(=O)C(C(=O)NC(C(=O)NC2C(=O)N3C2SC(C)(C)C3C(=O)O)c2ccccc2)=C1O (centres unmarked)
MIC (Escherichia coli; broth microdilution; ATCC 25922 wild type; no clavulanic acid): 12.5 µg/mL

CCCCCCCCCC(=O)N[C@@H](Cc1c[nH]c2ccccc12)C(=O)N[C@H](CC(N)=O)C(=O)N[C@@H](CC(=O)O)C(=O)N[C@@H]1C(=O)NCC(=O)N[C@@H](CCCN)C(=O)N[C@@H](CC(=O)O)C(=O)N[C@H](C)C(=O)N[C@@H](CC(=O)O)C(=O)NCC(=O)N[C@H](CO)C(=O)N[C@@H]([C@H](C)CC(=O)O)C(=O)N[C@@H](CC(=O)c2ccccc2N)C(=O)O[C@@H]1C
MIC (Staphylococcus aureus; SH1000; together with: cardiolipin, molar ratio 0.5): 1 µg/mL

Cc1ccc(CCC(=O)Nc2nnc(S(N)(=O)=O)s2)cc1
MIC (Phocaeicola dorei; HM-719): > 784 µM

C#CCON=C1C=CC(=C(C#N)c2ccccc2)C=C1
MIC (Pichia norvegensis; broth dilution; ATCC 96139; 48 h, 37 °C): 32 µg/mL

CC1(C)S[C@@H]2[C@H](NC(=O)[C@H](N)c3ccccc3)C(=O)N2[C@H]1C(=O)O
MIC (Pseudomonas aeruginosa; clinical isolate RKI-No_254/15): > 16 µg/mL

CC1(C)S[C@@H]2[C@H](NC(=O)[C@H](N)c3ccccc3)C(=O)N2[C@H]1C(=O)O
MIC (Escherichia coli; broth microdilution; BW25113 wild type; 18 h): 3.12 µg/mL

CN[C@H](CC(C)C)C(=O)N[C@H]1C(=O)N[C@@H](CC(N)=O)C(=O)N[C@H]2C(=O)N[C@H]3C(=O)N[C@H](C(=O)N[C@H](C(=O)O)c4cc(O)cc(O)c4-c4cc3ccc4O)[C@H](O)c3ccc(c(Cl)c3)Oc3cc2cc(c3O[C@@H]2O[C@H](CO)[C@@H](O)[C@H](O)[C@H]2O[C@H]2C[C@](C)(N)[C@H](O)[C@H](C)O2)Oc2ccc(cc2Cl)[C@H]1O
MIC (Staphylococcus epidermidis; MRSE-37, methicillin-resistant): 1 µg/mL

C#CCOC(=O)ON=C1C=CC(=C(C#N)c2ccccc2)C=C1
MIC (Pichia norvegensis; broth dilution; ATCC 96139; 48 h, 37 °C): 16 µg/mL

N=C(N)c1ccc(OCc2cc(COc3ccc(C(=N)N)cc3)cc(-c3ccccc3)c2)cc1
MIC (Escherichia coli; 552100; in combination, checkerboard, together with: rifampicin): 12.5 µg/mL

CC(=O)NC[C@H]1CN(c2ccc(N3CCOCC3)c(F)c2)C(=O)O1
MIC (Phocaeicola dorei; HM-717): < 2.96 µM
